Published values pooled from the literature.
Each numbered part is a random draw from the data of one study; scales do not carry over between parts. Changes are numbered by the printed parent chain.

Set 1 — technique: aptamer microarray, sandwich; form: DNA with 2'F-ANA; matrix: in vitro; tested at: 200 nM; together with: Cy3 exosite-II aptamer, 400 nM; direction: higher = stronger binding; sequence: GGTTGGTGTGGTTGG
Target: Prothrombin, mature alpha-thrombin (F2, Homo sapiens, UniProt P00734)
Notes: whole 15-mer aptamer, many near background
`2'F-ANA at 1 2 3 5 6 10 12 14`: “mean fluorescence intensity” 44.4 a.u.
`2'F-ANA at 2 3 6 7 8 9 12 13`: “mean fluorescence intensity” 824 a.u.
`2'F-ANA at 4 5 7 8 9 13 14` — result for “mean fluorescence intensity”: 53.7 a.u.
`2'F-ANA at 1 2 3 4 6 7 9 11` — result for “mean fluorescence intensity”: 104 a.u.
For `2'F-ANA at 3 4 5 9 10 15`, “mean fluorescence intensity” read 66.2 a.u.
`2'F-ANA at 2 4 5 7 9 12` — result for “mean fluorescence intensity”: 147 a.u.
`2'F-ANA at 1 3 4 8 13`: “mean fluorescence intensity” 166 a.u.
`2'F-ANA at 2 3 5 6 7 8 14 15` — result for “mean fluorescence intensity”: 82.9 a.u.
Under “mean fluorescence intensity”, `2'F-ANA at 7 9 10 14 15` is recorded as 114 a.u.
For `2'F-ANA at 2 3 5 12 13 14`, “mean fluorescence intensity” read 62.6 a.u.
Under “mean fluorescence intensity”, `2'F-ANA at 3 6 7 8 10 12 14` is recorded as 405 a.u.
Under “mean fluorescence intensity”, `2'F-ANA at 2 4 7 9 11 14 15` is recorded as 88.2 a.u.
For `2'F-ANA at 1 10 11 12 14`, “mean fluorescence intensity” read 47.2 a.u.
Under “mean fluorescence intensity”, `2'F-ANA at 1 2 3 7 9 10 11 14` is recorded as 65.1 a.u.
For `2'F-ANA at 1 2 5 6 8 9 11 13`, “mean fluorescence intensity” read 50.7 a.u.
Under “mean fluorescence intensity”, `2'F-ANA at 2 4 10 11 13` is recorded as 78 a.u.
`2'F-ANA at 1 3 4 5 7 8 10 14`: “mean fluorescence intensity” 55.6 a.u.
For `2'F-ANA at 4 5 8 13 15`, “mean fluorescence intensity” read 52.8 a.u.
`2'F-ANA at 1 2 4 6 7 9 11 12 13 14 15`: “mean fluorescence intensity” 66.2 a.u.

Set 2 — target: CCNE2, cyclin fold, Cln2 fusion (human); technique: yeast growth competition, sequencing; matrix: yeast; notes: strong parent motif; reference: not given; direction: higher = stronger binding
Parent: CDKN1A docking peptide (human); SKACRRLFGPVDS
Under “normalised enrichment score”, `SKACFRLFGPVDS [R5F]` is recorded as 0.54.
`SKACRRLFGHVDS [P10H]`: “normalised enrichment score” 2.52.
Under “normalised enrichment score”, `SKACHRLFGPVDS [R5H]` is recorded as 0.49.
Under “normalised enrichment score”, `SKACRRLLGPVDS [F8L]` is recorded as -0.0142.
`SKACRRLFGPVES [D12E]`: “normalised enrichment score” 3.93.
Under “normalised enrichment score”, `SHACRRLFGPVDS [K2H]` is recorded as 4.29.
`SVACRRLFGPVDS [K2V]` — result for “normalised enrichment score”: 2.52.
For `SKACRRNFGPVDS [L7N]`, “normalised enrichment score” read 0.351.
For `SKQCRRLFGPVDS [A3Q]`, “normalised enrichment score” read 0.625.
`SPACRRLFGPVDS [K2P]` — result for “normalised enrichment score”: 3.43.
`SKACARAFGPVDS [R5A L7A]` — result for “normalised enrichment score”: 0.161.
Under “normalised enrichment score”, `SNACRRLFGPVDS [K2N]` is recorded as 4.28.
For `SMACRRLFGPVDS [K2M]`, “normalised enrichment score” read 2.9.
`SKAFRRLFGPVDS [C4F]`: “normalised enrichment score” 0.547.
For `SKACRRLFGDVDS [P10D]`, “normalised enrichment score” read 5.04.
`SKACRRLCGPVDS [F8C]`: “normalised enrichment score” 0.203.
For `SKACRRLFGPVWS [D12W]`, “normalised enrichment score” read 2.4.
Under “normalised enrichment score”, `SKAVRRLFGPVDS [C4V]` is recorded as 3.81.
For `SKACRRLFYPVDS [G9Y]`, “normalised enrichment score” read 4.15.
For `SKAERRLFGPVDS [C4E]`, “normalised enrichment score” read -0.0186.
Under “normalised enrichment score”, `SKGCRRLFGPVDS [A3G]` is recorded as 1.43.
`SKACNRLFGPVDS [R5N]` — result for “normalised enrichment score”: 0.703.

Set 3 — technique: protein-binding microarray; form: double-stranded DNA, one strand shown; matrix: in vitro; tested at: not given; direction: higher = stronger binding
Target: Protein C-ets-1 (ETS1, Homo sapiens, UniProt P14921, residues 1-441, K379A, full length assumed)
Sequence of UniProt P14921 (whole entry, unmodified, looked up): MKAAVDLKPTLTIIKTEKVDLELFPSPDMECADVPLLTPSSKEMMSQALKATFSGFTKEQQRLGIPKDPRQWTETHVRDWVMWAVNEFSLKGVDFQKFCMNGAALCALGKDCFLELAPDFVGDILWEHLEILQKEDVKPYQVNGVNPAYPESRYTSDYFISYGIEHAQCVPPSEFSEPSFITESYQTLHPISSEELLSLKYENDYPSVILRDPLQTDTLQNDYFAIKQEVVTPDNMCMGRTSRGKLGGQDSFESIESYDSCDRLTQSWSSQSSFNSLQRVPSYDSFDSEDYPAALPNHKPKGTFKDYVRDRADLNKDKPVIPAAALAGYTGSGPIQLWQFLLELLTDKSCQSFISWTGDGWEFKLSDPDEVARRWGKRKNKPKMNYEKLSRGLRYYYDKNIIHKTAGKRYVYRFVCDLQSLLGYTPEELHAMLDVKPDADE
Notes: k-mer, scored over probes, only values ≥0.25
`AAGTACCG` has an E-score of 0.256.
For `CCGGGGCG`, the E-score was 0.377.
With `ATAGCGAC` the E-score was 0.266.
The E-score of `GCATGTCA` is reported as 0.267.
`CATGCCGG` has an E-score of 0.34.
With `GGCCGACA` the E-score was 0.304.
`GGTTGGAA` gave an E-score of 0.258.
`CGCCGCCA` gave an E-score of 0.268.
For `ACACCGCC`, the E-score was 0.277.
`CCGGTGCG` gave an E-score of 0.39.
`CCCCGGAG` has an E-score of 0.304.
`ACTACAAC` gave an E-score of 0.271.
`CGGCCGGC` gave an E-score of 0.35.
With `CCCCCGGC` the E-score was 0.285.
With `ACAAAACG` the E-score was 0.255.
`GACGGAAA` has an E-score of 0.251.
For `CCGGGAAA`, the E-score was 0.323.
`AGTATATG` gave an E-score of 0.273.
The E-score of `CACCGCCC` is reported as 0.273.
With `CGGCCGAC` the E-score was 0.286.
For `CTCCGGAA`, the E-score was 0.279.
The E-score of `AATTGACG` is reported as 0.26.
`CCCCCGGA` has an E-score of 0.366.

Set 4 — technique: RNA Bind-n-Seq; form: RNA; matrix: in vitro; tested at: 200 nM; notes: whole 134-nt RNA, ends assumed; together with: 150 mM LiCl; reference: input library; direction: higher = stronger binding; all molecules: 7-deaza-guanosine replaces G
Target: Fragile X messenger ribonucleoprotein 1, C-terminal low-complexity region (Fmr1, Mus musculus, UniProt P35922)
Shared flanks, not repeated: GGGAGUUCUACAGUCCGACGAUC … UGGAAUUCUCGGGUGUCAAGG
`ACCAUGCAGGUGGGCAUCUUUGGGAAGUGGGGCAAGGGGGGGAUAGGGAGGGGGGUAACACUUUGGGAACAGGUGGUCCCAGGUAGUUUC` has a log2 enrichment of 0.864.
For `AAGUCCUGUGCUACACAUCGUAUGUACCGAAUCGGAAAAGGGAAAAGGGAAAAGGGGAAAGUAUUAUGUUACGCCGUUCGGAUCUGCACU`, the log2 enrichment was 0.287.
The log2 enrichment of `GGCGGAGCAGCUGAUGGAGGAGUGGAACGAAGACCUAGACGGCAUGGAGGGUUUCGUGCUGGAGGGCAAGAAGUUUGCGCGGCUGCCGGA` is reported as -2.09.
With `AGUCCUGUGCUACACAUCGUAUGUACCGAAUCGGGGAAAGGGGAGGGGUUUUUGGGGAAAGUAUUAUGUUACGCCGUUCGGAUCUGCACU` the log2 enrichment was -0.321.
`ACCAUGCAGGUGGGCAUCUUUUGGAAGUGGGGCAAGGGGGGGAUAGGGAGGGGGGUAACACUUUGGGAACAGGUGGUCCCAGGUCGUUUC` gave a log2 enrichment of 1.31.
`CCUGUGCUACACAUCGUAUGUACCGAAUCGGGAAAAAAGGGGAAAAAAGGGAAAAAAGGGAAAGUAUUAUGUUACGCCGUUCGGAUCUGC` has a log2 enrichment of -0.266.
`CUCAAGUCCUGUGCUACACAUCGUAUGUACCGAAUCGGUGGAAAAAGGUUUGGAAAGUAUUAUGUUACGCCGUUCGGAUCUGCACUUCCA` gave a log2 enrichment of -0.475.
For `UAACUUUAGAGGAGGAUCUGAUGGAUAUGGCAGUGGACGUGGAUUUGGGGAUGGCCAUAAUGGGUAUGGAGGAGGACCUGGAGGUGGCAA`, the log2 enrichment was -0.372.
With `AAGUCCUGUGCUACACAUCGUAUGUACCGAAUCGGGUUUUUUUGGGUUUGGGUGGGAAAGUAUUAUGUUACGCCGUUCGGAUCUGCACUU` the log2 enrichment was -1.57.
The log2 enrichment of `CAAGUCCUGUGCUACACAUCGUAUGUACCGAAUCGGUUUUUGGUUUUUUUGGUGGAAAGUAUUAUGUUACGCCGUUCGGAUCUGCACUUC` is reported as -1.29.
`UGGCUGCAGGCGCACCCCGGCAGGAUUUUGCCUCCGCUGUCGCCCCCGCAGCACCGCUACUCGGAGGGCGAGCGGACCUCCCUGGAGAAG` gave a log2 enrichment of -2.97.

Set 5 — technique: universal PBM; form: double-stranded DNA, one strand shown; matrix: in vitro; tested at: not given; direction: higher = stronger binding
Target: Sal-like protein 4, full length isoform B (SALL4, Homo sapiens, UniProt Q9UJQ4-2, residues 1-616)
Notes: 8-mer, flanks averaged, mean of replicates
The E-score of `ACTCAGAC` is reported as -0.0638.
`ATAGGCAA` has an E-score of 0.175.
`AATATGCG` has an E-score of 0.245.
With `CGCCTGAG` the E-score was -0.285.
With `CTGGAGTC` the E-score was -0.263.
For `AGACCGCT`, the E-score was -0.148.
`ACCCCGCG` gave an E-score of -0.151.
The E-score of `GGGCAGGA` is reported as -0.147.
With `CCACTCAC` the E-score was -0.0954.
`AATAAAAG` has an E-score of 0.27.
`CAGAAGTC` has an E-score of -0.138.
The E-score of `ATGGGCTA` is reported as 0.0926.
`CTGGTACC` has an E-score of -0.24.
For `TACACCTA`, the E-score was 0.182.
`ATATGGCG` gave an E-score of 0.19.
With `ACCGGTCA` the E-score was -0.179.
For `ACCACTGC`, the E-score was -0.25.
The E-score of `CAAACCGC` is reported as -0.217.
`CTCTGGCA` has an E-score of -0.249.
`ATCTCATA` gave an E-score of 0.242.
With `CGGGACCC` the E-score was -0.368.
The E-score of `AATCTGTC` is reported as 0.056.
`AGCTGATA` gave an E-score of 0.211.
The E-score of `ACAATATG` is reported as 0.324.
With `CATTCCCG` the E-score was -0.0495.

Set 6 — technique: protein binding microarray; form: double-stranded DNA, one strand shown; matrix: in vitro; tested at: not given; reference: not given; direction: higher = stronger binding
Target: Histone acetyltransferase KAT6A, both winged helices, GST fusion (KAT6A, Homo sapiens, UniProt Q92794, residues 1-181)
Notes: 8-mer, flanks averaged, mean of 2 arrays, mostly near background
Target sequence (chain): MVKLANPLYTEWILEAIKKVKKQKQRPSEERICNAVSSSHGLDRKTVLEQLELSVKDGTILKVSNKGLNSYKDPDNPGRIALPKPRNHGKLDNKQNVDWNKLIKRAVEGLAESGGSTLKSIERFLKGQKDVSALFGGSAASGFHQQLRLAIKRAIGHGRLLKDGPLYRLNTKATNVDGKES
`TAGAATCA` gave an E-score of -0.21.
The E-score of `AGAATGAA` is reported as -0.0413.
`CAGCGACG` has an E-score of 0.175.
`GTATACTA` has an E-score of -0.143.
With `CCTGTCAC` the E-score was -0.00101.
The E-score of `CCAGCTCC` is reported as -0.256.
The E-score of `AATCCGGA` is reported as 0.0479.
The E-score of `CACCGGTC` is reported as 0.111.
For `GCCCCGGC`, the E-score was 0.0844.
`GATTCATA` gave an E-score of 0.0508.
`CCCTCGAC` gave an E-score of -0.146.
`AAAAATCT` has an E-score of -0.0552.
The E-score of `GGCCCTAC` is reported as -0.0901.
`AGACTTTG` gave an E-score of -0.0521.
For `GACGTAGC`, the E-score was 0.106.
The E-score of `CTTCTACC` is reported as -0.0916.
The E-score of `TCGAGAAA` is reported as -0.0793.
For `GTCATTCA`, the E-score was -0.0209.
`ACGCCAAT` has an E-score of -0.0771.
The E-score of `CAGCTGTA` is reported as -0.0303.
`ATGTGCCC` has an E-score of -0.0306.
With `AATTTACT` the E-score was -0.0329.
`ACGGTGAT` gave an E-score of 0.124.
`AACGGTGC` has an E-score of 0.188.
The E-score of `CATACCAA` is reported as -0.0638.

A few entries again (set 5):
`CTGGTACC` has an E-score of -0.24.
For `TACACCTA`, the E-score was 0.182.
`ATATGGCG` gave an E-score of 0.19.
With `ACCGGTCA` the E-score was -0.179.
For `ACCACTGC`, the E-score was -0.25.
The E-score of `CAAACCGC` is reported as -0.217.
`CTCTGGCA` has an E-score of -0.249.
`ATCTCATA` gave an E-score of 0.242.
With `CGGGACCC` the E-score was -0.368.
The E-score of `AATCTGTC` is reported as 0.056.
